Measured values gathered from unrelated publications.
Parts stem from different laboratories: compare values within a part only. Substitutions count along the parent as printed.

Sample 1
Target: Sal-like protein 4, full length isoform B (SALL4, Homo sapiens, UniProt Q9UJQ4-2, residues 1-616)
Technique: universal PBM
Form: double-stranded DNA, one strand shown
Matrix: in vitro
Tested at: not given
Setting: 8-mer, flanks averaged, mean of replicates
Direction: higher = stronger binding
Target sequence (chain): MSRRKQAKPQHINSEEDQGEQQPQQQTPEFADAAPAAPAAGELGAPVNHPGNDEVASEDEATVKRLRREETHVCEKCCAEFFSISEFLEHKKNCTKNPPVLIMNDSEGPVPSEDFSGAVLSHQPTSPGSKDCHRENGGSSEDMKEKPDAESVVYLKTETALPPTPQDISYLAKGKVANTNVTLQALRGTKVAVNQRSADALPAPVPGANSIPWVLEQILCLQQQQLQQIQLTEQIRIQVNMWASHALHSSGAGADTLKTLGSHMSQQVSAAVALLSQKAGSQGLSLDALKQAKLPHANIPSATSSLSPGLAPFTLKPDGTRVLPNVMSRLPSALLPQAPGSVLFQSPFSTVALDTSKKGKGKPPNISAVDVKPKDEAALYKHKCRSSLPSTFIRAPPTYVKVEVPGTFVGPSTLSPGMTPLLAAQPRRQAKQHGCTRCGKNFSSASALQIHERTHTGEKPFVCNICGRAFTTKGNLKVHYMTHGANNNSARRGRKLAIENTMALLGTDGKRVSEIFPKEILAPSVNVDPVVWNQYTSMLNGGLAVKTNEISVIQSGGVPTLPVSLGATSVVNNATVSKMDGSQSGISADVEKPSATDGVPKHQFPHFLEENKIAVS
`CAGGTTCG` has an E-score of -0.00196.
The E-score of `CTACGCAG` is reported as -0.125.
The E-score of `GCGTCAGA` is reported as -0.1.
`ATGTTTCC` gave an E-score of 0.0529.
`AGTAACGA` gave an E-score of 0.133.
For `GCGCGTTA`, the E-score was -0.0194.
For `TGCGCCAA`, the E-score was -0.0134.
The E-score of `GGACGTAA` is reported as -0.0534.
`AAGGTTAT` gave an E-score of 0.215.
The E-score of `CAGGCCGG` is reported as -0.364.
`CATCTCGG` has an E-score of -0.00974.
The E-score of `ATATCGAC` is reported as 0.206.
With `CAGAGAAA` the E-score was 0.0556.
With `AAATACAA` the E-score was 0.384.
With `AGTAAGCC` the E-score was -0.114.
The E-score of `GCCTTTTA` is reported as -0.0984.
For `AGTGGGCG`, the E-score was -0.17.
For `ACCGTAGG`, the E-score was -0.224.
The E-score of `AAACTCGG` is reported as -0.159.

Sample 2
Target: RNA binding protein fox-1 homolog 2, RRM domain, GST-SBP tag (RBFOX2, Homo sapiens, UniProt O43251-10, residues 100-194)
Technique: RNA Bind-n-Seq
Form: RNA
Matrix: in vitro
Tested at: 365 nM
Setting: natural RNA segment, single round, ends assumed
Relative to: no-protein control
Direction: higher = stronger binding
Shared flanks, not repeated: GGGAGUUCUACAGUCCGACGAUC … UGGAAUUCUCGGGUGCCAA
Target sequence (chain): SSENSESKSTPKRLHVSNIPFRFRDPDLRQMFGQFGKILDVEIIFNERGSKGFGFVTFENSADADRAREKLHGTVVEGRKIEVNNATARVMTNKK
`AGUCAAGUGAUGACACGACACACUUGAAACCCUGGCAAGUGGCUGCAAGGUGAGGAUUGGACUCGUGGGUGCCAGGAUCGGCUGGAGGACCUCCUGCCAAAGAGAGCUUU`: “RBNS enrichment (R)” 0.602.
For `ACAUUUUCAAGGGAUAAGGCCUUCUGUACUUUGCUUAUUUGAAGAAUCAGUGGUAGGAGCAGUGAAGUAAAUUCUAUGGAGUACAUUUCUAAAAUACCACAUUUCUGAAA`, “RBNS enrichment (R)” read 0.352.
Under “RBNS enrichment (R)”, `GGUCACUGUGUUUCCACACAGCAAAAACAGACGUAGCCAUAUCAGAUGGAAAACAUGCAUAGACACAAACCCCCUGCCUUAUGUGGAAAUCAUAGCCCCCUGCCGCUCAG` is recorded as 0.669.
`GGACCUGGAGUUCGGGCAGAUGUGACAUCAAUAAAACUGCGUCUCACAUUUUAACCAUGUUUUCUGACACCAGAGGAGUAGUGUGGACUCUUACAUUCCGGAGUUUGGGU`: “RBNS enrichment (R)” 0.361.
`CAUGCCAUCUGGUGCCAAAUGAAAAUUCUUAGGAGUGAAUAUUAAUCAUGAAGGUCACAGUUGUGGUACUGUUAUUGAUAAUAAUAUAGGGUUUUUUUCUGCCUAAGUUU`: “RBNS enrichment (R)” 0.798.
`CUUUCUUUCUAGACUGGAUUAUGCUCACAUGCUCCCUUGCCCUGACAUUUUUGUAAAUUCUGUGCCCUUUGCUGUAGCUACACUUCAGAUUAAAGUAGGAGAAAGAAUGU`: “RBNS enrichment (R)” 0.196.
For `UGGCAGGAUGUCUGGGGCCUCACCAGCAGGAGCGCGUGCAAGCCGGGCAGGCGGUCCACCUAGACCCACAGCCCCUCGGGAGCACCCCACCUCUGUGUGUGAUGUAGCUU`, “RBNS enrichment (R)” read 0.41.
Under “RBNS enrichment (R)”, `AUGUUCCUUGUGGGAGACUUUGGCGAGGGUCUGUGGGUAAAAGCACCAGGGGGUUAAUCUUGGCUCAGUUUCCUAAAAAGCAUUGAUUAAUUUAACUGGCUUUUAAAUAU` is recorded as 0.891.
Under “RBNS enrichment (R)”, `CUUAACCUUGCUAUGUCUCUCCUUUGAAUAAUGGGGCUUAAAAGAAUAAUGAACAUGGAAUUUGAAUUACUUUUACAAAGCAAUAUGAACUUGUAGAGCUUGUCUUGUGC` is recorded as 0.424.
`UACUGAUUAUUAAGCAGGACAGACUGAGCUUUCUGUUGCAAAUACCUUGGAGGAGAAAGUAAUUUCUAAAUAUACAGAGAGGUAACUUGACUAUAUAUGUUGCAUCCUGU`: “RBNS enrichment (R)” 0.309.
For `CCACGCCAUAUCCUUUGUGGAGCAUAGUGGGUUAUCUAUCUGUCUGUCUGUCUAUGUAUCUGUCUAUCUAUCUAUAUAUAUAUUCAGCUUCUUUACUGCUACCUACACAU`, “RBNS enrichment (R)” read 0.299.
For `CGUCCGUCCAUCUGUCCCUGCUGGUCUCUGUCUAGAGAGUGCUGUUCGGGAUCUGCUCCUUCUGUCCCAGGAGGUCUACUGGAGUUAGUUGUGUGGUCACCAAGAGGACU`, “RBNS enrichment (R)” read 0.304.

Sample 3
Target: Prothrombin, mature alpha-thrombin (F2, Homo sapiens, UniProt P00734)
Technique: aptamer microarray, sandwich
Form: DNA with 2'F-ANA
Matrix: in vitro
Tested at: 200 nM
Setting: whole 15-mer aptamer, many near background
Together with: Cy3 exosite-II aptamer, 400 nM
Direction: higher = stronger binding
Strand: GGTTGGTGTGGTTGG
`2'F-ANA at 5 6 7 9` — result for “mean fluorescence intensity”: 74.7 a.u.
`2'F-ANA at 1 2 6 8 11 13` — result for “mean fluorescence intensity”: 117 a.u.
Under “mean fluorescence intensity”, `2'F-ANA at 1 4 5 6 9 10 13` is recorded as 50 a.u.
Under “mean fluorescence intensity”, `2'F-ANA at 1 3 4 5 6 7 11 14` is recorded as 49.2 a.u.
For `2'F-ANA at 1 2 3 4 5 7 9 15`, “mean fluorescence intensity” read 63 a.u.
For `2'F-ANA at 8 9 10 11 12 14 15`, “mean fluorescence intensity” read 105 a.u.
For `2'F-ANA at 1 4 5 6 10 11 12`, “mean fluorescence intensity” read 47.9 a.u.
Under “mean fluorescence intensity”, `2'F-ANA at 1 2 3 6 7 11` is recorded as 165 a.u.
For `2'F-ANA at 1 5 6 10 14 15`, “mean fluorescence intensity” read 69.6 a.u.
`2'F-ANA at 2 4 5 6 9 11 12` — result for “mean fluorescence intensity”: 117 a.u.
Under “mean fluorescence intensity”, `2'F-ANA at 1 2 3 8 12 14 15` is recorded as 135 a.u.
Under “mean fluorescence intensity”, `2'F-ANA at 1 2 3 4 5 11 12 14` is recorded as 47.3 a.u.
For `2'F-ANA at 2 3 4 5 6 10 12 13 14`, “mean fluorescence intensity” read 44.5 a.u.
`2'F-ANA at 1 2 3 4 8 11 13 14` — result for “mean fluorescence intensity”: 106 a.u.
`2'F-ANA at 2 5 10 12 13 14 15`: “mean fluorescence intensity” 52.5 a.u.
`2'F-ANA at 2 3 6 7 8 9 10 13 14`: “mean fluorescence intensity” 267 a.u.
`2'F-ANA at 1 3 4 5 8 9 10 12 13 14 15`: “mean fluorescence intensity” 65.7 a.u.
Under “mean fluorescence intensity”, `2'F-ANA at 6 7 8 9 10 12 13` is recorded as 159 a.u.

Sample 4
Target: CCND1, cyclin fold, Cln2 fusion (human)
Technique: yeast growth competition, sequencing
Matrix: yeast
Setting: strong parent motif
Relative to: not given
Direction: higher = stronger binding
Starting sequence: E2F1 docking peptide (human); PPVKRRLDFETDH; partner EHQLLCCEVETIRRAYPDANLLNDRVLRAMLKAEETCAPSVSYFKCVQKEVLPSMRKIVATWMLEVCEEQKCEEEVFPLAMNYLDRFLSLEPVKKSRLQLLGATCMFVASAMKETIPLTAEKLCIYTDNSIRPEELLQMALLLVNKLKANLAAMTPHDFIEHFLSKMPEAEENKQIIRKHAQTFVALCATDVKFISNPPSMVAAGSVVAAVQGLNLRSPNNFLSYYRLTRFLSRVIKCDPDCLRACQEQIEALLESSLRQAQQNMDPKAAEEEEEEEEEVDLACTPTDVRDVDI
`P2F`: “normalised enrichment score” 0.757.
`R6A`: “normalised enrichment score” 1.37.
`F9Q`: “normalised enrichment score” 0.455.
For `D12Y`, “normalised enrichment score” read 3.13.
`D12N` — result for “normalised enrichment score”: 2.83.
For `P2K`, “normalised enrichment score” read 2.14.
For `P2S`, “normalised enrichment score” read 2.98.
`L7N` — result for “normalised enrichment score”: 0.0581.
For `R5L`, “normalised enrichment score” read 0.976.
`L7D`: “normalised enrichment score” -0.317.
`D8N`: “normalised enrichment score” 3.15.
For `D8M`, “normalised enrichment score” read 1.76.
Under “normalised enrichment score”, `R5D` is recorded as 0.223.
`L7M`: “normalised enrichment score” 0.566.
`P2C`: “normalised enrichment score” 2.74.
Under “normalised enrichment score”, `V3K` is recorded as 0.0546.
Under “normalised enrichment score”, `R6Q` is recorded as 1.56.
`D12R` — result for “normalised enrichment score”: 2.05.
Under “normalised enrichment score”, `F9D` is recorded as -0.18.

Sample 5
Target: RING finger protein unkempt homolog, zinc fingers 1-6, GST-SBP tag (UNK, Homo sapiens, UniProt Q9C0B0, residues 30-357)
Chain of UniProt Q9C0B0 (30-357, looked up): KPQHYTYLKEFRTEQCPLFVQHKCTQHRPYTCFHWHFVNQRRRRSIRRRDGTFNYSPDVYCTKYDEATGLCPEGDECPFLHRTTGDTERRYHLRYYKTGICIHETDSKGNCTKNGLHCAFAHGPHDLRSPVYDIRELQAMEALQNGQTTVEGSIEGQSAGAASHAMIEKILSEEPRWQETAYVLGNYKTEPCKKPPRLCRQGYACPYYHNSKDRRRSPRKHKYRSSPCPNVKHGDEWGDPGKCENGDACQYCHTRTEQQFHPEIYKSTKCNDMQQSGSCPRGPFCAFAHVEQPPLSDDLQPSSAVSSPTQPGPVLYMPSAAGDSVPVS
Technique: RNA Bind-n-Seq
Form: RNA
Matrix: in vitro
Tested at: not given
Setting: RNA with constant flanks, human and mouse sites, ends assumed
Relative to: input RNA pool
Direction: higher = stronger binding
Shared flanks, not repeated: GGGAGUUCUACAGUCCGACGAUC … CAACAGAGGAUUGAGCAUCA
`CCGCACCUCCUCCACCACCGCCUCCCGCUCCCUGACGACAGGGAAGAUGGAGAGUUGGAAGAAGGUGAAUUGGAAGAUGAUGGGGCAGAGGAGACCCAGGAUACCUCCGGAGGGCCUGAG` has a bound/input enrichment of 0.111 ratio.
`GACAUUAUCAAGUUUCUGCAGGAUCACGGUUCAGAUUCGUUUCUUGCAGAGCAUAAAUUACUGGGAAACAUCAAAAAUGUUGCCAAGACUGCUAAUAAGGACCAUUUGGUUAAUGCCUAU` gave a bound/input enrichment of 0.132 ratio.
For `CUGGUGGCUGAGGUCCGCAUCGGUGACAGGGACCCCAUGCCUCUACCUGUGCCCAGCCUGUUUCCCCGCCUCAGGGCCUGGAGGACAGGAAAGACAGUUUCUCCACAGUCCCAUGCAUCU`, the bound/input enrichment was 0.105 ratio.
The bound/input enrichment of `UCAAGGGCACGAGCAUCGGCCAUGCCUUUCUUGGACAUCCAGAAAAGGUUCGGCCUUAACAUAGAUCGAUGGUUGACAAUCCAGAGUGGUGAACAGCCCUACAAGAUGGCUGGUCGAUGC` is reported as 0.19 ratio.
For `UUCAUUUUACGGUAUUCCCUGGAGUUUGGUCCUCCUGACCCUGCCCAAGUGCCUACCACAGCUGUGACAAUAACUUCUUCAGCUGAGCUGUUCAAAACCACAAUAUCCACCACGAGCAGU`, the bound/input enrichment was 0.139 ratio.
The bound/input enrichment of `UUAGUAUCCAAUUUCGAUCAGCAGCAGCUCGCUAAUUUCUGCCGGAUUCUGGCUGUCACCAUUUCAGAGAUGGAUACAGGGAAUGAUGACAAGCACACGCUUCUUGCCAAAAAUGCUCAA` is reported as 0.222 ratio.
The bound/input enrichment of `CACCAUGGCUGUGUUUGUCGUGCUCCUGGCGUUGGUGGCGGGUGUUUUGGGGAACGAGUUUAGUAUAUUAAAAUCACCAGGGUCUGUUGUUUUCCGAAAUGGAAAUUGGCCUAUACCAGG` is reported as 6.79 ratio.
For `CUACCCAGCCCUCUUCUUGUUUGUAUUUGUUUAGGGUUGUGAGGUUGUGUAAAAUAGUACUAGCUUCUUACUUGAGAACUACAGUUUCUGCUUAUCAUUUAUUCUUCCUUGUGGCACUUA`, the bound/input enrichment was 0.418 ratio.
`GCUAUAAAAUGUGUUGCUUGUAAUAAUCCUGUUACACCAAGUUUAUCUACUGCACCUCCCUCUUUUAAGUUUGGUACCUCAGAGAUGAGUAAGCCUUUCAGGAUUGGAUUUGAGGGUAUG` has a bound/input enrichment of 0.408 ratio.
`ACCGCAGCUGCUGCGCCUAUGAUUGGCUAUCCCAUGCCAACAGGGUAUUCUCAAUAAGACUUUAGAAGUAUAUGUAAAUGUCUGUUUUUCAUAAUUGCUCUUUAUAUUGUGUGUUAUCAG` has a bound/input enrichment of 0.751 ratio.
For `CAGAGCCCUCCAUAUAUGGGUGCCACAUCUCCACCCAAAGACAAGAAACGCCCAACACCUUUAGAGAUUGGUUACUCUUCUUCUCACCUUCGGGCAGACCCCACAGUCCAGCUGGCUCCU`, the bound/input enrichment was 0.487 ratio.
